Measured values collected from several papers.
Every numbered part comes from another study and shows a few of its results, in no order. Substitutions count along the parent as printed.

Set 1
Target: Sal-like protein 4, full length isoform A (SALL4, Homo sapiens, UniProt Q9UJQ4, residues 1-1053)
Sequence of UniProt Q9UJQ4 (whole entry, looked up): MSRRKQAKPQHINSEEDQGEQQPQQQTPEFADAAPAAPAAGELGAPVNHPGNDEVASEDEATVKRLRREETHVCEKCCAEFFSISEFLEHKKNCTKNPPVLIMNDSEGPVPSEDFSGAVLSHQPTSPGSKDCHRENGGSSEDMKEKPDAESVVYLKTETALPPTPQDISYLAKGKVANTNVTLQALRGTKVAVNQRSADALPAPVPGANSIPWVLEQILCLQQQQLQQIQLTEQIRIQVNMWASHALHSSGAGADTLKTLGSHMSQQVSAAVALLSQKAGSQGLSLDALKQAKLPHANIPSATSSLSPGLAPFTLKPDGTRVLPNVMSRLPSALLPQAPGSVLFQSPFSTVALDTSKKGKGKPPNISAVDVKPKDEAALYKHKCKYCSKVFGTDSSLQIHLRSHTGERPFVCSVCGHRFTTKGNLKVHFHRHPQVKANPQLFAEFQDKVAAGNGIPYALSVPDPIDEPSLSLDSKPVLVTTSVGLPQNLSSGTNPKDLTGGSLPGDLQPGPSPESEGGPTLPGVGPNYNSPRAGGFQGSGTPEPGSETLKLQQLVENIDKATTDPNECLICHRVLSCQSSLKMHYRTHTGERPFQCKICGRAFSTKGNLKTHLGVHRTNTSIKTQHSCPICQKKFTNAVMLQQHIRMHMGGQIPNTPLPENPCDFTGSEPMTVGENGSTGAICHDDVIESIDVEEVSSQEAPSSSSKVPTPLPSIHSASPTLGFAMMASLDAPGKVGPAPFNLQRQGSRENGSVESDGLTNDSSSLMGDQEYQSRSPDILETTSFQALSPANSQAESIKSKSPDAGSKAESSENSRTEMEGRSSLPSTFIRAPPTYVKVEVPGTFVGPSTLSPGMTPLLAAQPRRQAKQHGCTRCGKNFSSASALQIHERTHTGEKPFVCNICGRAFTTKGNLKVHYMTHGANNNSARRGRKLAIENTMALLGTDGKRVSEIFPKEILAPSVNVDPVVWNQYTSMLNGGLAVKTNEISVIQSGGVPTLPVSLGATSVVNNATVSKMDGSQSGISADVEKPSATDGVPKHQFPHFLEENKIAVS
Technique: universal PBM
Form: double-stranded DNA, one strand shown
Sample: in vitro
Tested at: 600 nM
Setting: 8-mer, flanks averaged, mean of replicates
Direction: higher = stronger binding
Quantity: E-score
CCCGAGGC: -0.329
CGGCAATA: 0.113
GTGATACA: 0.124
GCCCATTA: -0.0206
CCGTTGAC: -0.185
TACCAGAA: 0.106
GCCCACGC: -0.363
AAGTTAGG: 0.0227
CGACTTCC: -0.136
AAAGAGTC: -0.152
GCACATGA: 0.0334
AATTCCCT: 0.132
TATGACCA: 0.22
AGCGATCC: -0.167
AGTAGACT: 0.0627
GACGGTGC: -0.269
AGCGTAAT: 0.177
CACGTACG: -0.072
GCGCCCGA: -0.409
ACGTCTAA: 0.0104
AAGCCCAA: 0.00407
ATGGAAAC: 0.159
AATGTCTC: -0.0195
AATCGGAA: 0.0729
ATTTCTTG: 0.239

Set 2
Target: UBE2O UBC core domain (UniProt Q9C0C9)
Technique: yeast two-hybrid
Sample: yeast
Setting: mostly zero background
Reference: not given
Direction: higher = stronger interaction
Quantity: lacZ reporter activity
B1: TRIM72 RING domain (UniProt Q6ZMU5); chain APGLLHQELSCPLCLQLFDAPVTAECGHSFCRACLGRVAGEPAADGTVLCPCCQAPTRPQALST
B2: UHRF2 RING domain (UniProt Q96PU4); chain CGGDPEKKCHSCSCRVCGGKHEPNMQLLCDECNVAYHIYCLNPPLDKVPEEEYWYCPSCKTDSSEVVKAGER
B3: CUL9 RING domain (UniProt Q8IWT3); chain AQAVPVRPDHCPVCVSPLGCDDDLPSLCCMHYCCKSCWNEYLTTRIEQNLVLNCTCPIADCPAQPTGAFIR
B4: PHF21A RING domain (UniProt Q96BD5); chain SPTSTDGDIHEDFCSVCRKSGQLLMCDTCSRVYHLDCLDPPLKTIPKGMWICPRCQDQMLKKEEAIPW
Residues (chain): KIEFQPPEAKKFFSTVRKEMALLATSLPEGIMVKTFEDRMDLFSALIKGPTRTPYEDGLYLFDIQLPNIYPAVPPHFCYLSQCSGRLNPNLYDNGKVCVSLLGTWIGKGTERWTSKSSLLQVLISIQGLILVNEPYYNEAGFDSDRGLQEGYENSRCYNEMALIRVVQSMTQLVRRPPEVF
B1 (TRIM72 RING domain): 0
QHHELTSLFECPVCFDYVLPPILQCQAGHLVCNQCRQKLSCCPTCRGALTPSIRNL (SIAH2 RING domain (UniProt O43255)): 0
FASPPDSNFVCSVCHGVLKRPARLPCSHIFCKKCILRWLARQKTCPCCRKEVKRKKVVH (RNF151 RING domain (UniProt Q2KHN1)): 0
RLTMMWEEVTCPICLDPFVEPVSIECGHSFCQECISQVGKGGGSVCPVCRQRFLLKNLRP (TRIM21 RING domain (UniProt P19474)): 0
DAIPSLSECQCGICMEILVEPVTLPCNHTLCKPCFQSTVEKASLCCPFCRRRVSSWTRYH (RNF168 RING domain (UniProt Q8IYW5)): 0
B2 (UHRF2 RING domain): 0
VTLSLTLPITCHICLGKVRQPVICINNHVFCSICIDLWLKNNSQCPACRVPITPENPCK (OBI1 RING domain (UniProt Q5W0B1)): 0
DDENSDNSNECVVCLSDLRDTLILPCRHLCLCTSCADTLRYQANNCPICRLPFRALLQIR (MGRN1 RING domain (UniProt O60291)): 0
B3 (CUL9 RING domain): 0
YWAMDSTFELCKICAESNKDVKIEPCGHLLCSCCLAAWQHSDSQTCPFCRCEIKGWEAVS (CBLC RING domain (UniProt Q9ULV8)): 0
FPEHFVKSISCQICEHILADPVETNCKHVFCRVCILRCLKVMGSYCPSCRYPCFPTDLES (RAG1 RING domain (UniProt P15918)): 0
KTLSRFGIQPCSICLGDAKDPVCLPCDHVHCLRCLRAWFASEQMICPYCLTALPDEFSPA (RNF213 RING domain (UniProt Q63HN8)): 0
B4 (PHF21A RING domain): 0

Set 3
Target: ABI1, truncated, D143A, DHFR fusion (Arabidopsis thaliana)
Technique: DHFR PCA, deep sequencing
Sample: yeast
Setting: methotrexate growth selection, single substitutions
Together with: (+)-ABA 2500 µM
Reference: wild-type fitted maximum
Direction: higher = stronger binding
Quantity: relative binding score
Parent: PYL1, truncated, DHFR fusion (Arabidopsis thaliana); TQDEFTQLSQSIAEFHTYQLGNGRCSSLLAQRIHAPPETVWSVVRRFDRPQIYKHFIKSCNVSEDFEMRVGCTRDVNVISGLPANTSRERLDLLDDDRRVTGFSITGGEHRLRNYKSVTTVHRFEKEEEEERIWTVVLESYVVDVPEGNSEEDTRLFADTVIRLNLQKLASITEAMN
Q10A: 104%
R113I: 105%
T39M: 97.6%
V145R: 87.6%
D144K: 88.6%
T73G: 90.3%
H55F: 88.5%
N114V: 28.6%
T135V: 87.3%
Y53H: 97.6%
N177S: 89.1%
E109D: 108%
P146C: 87.4%
Q51N: 99.7%
L29Q: 94.5%
N165A: 54.2%
N77V: 95.5%
F124M: 106%
V100W: 65.2%
D3N: 86.6%
R24V: 99.6%
S87K: 1.25%

Set 4
Target: CCNF, cyclin fold, Cln2 fusion (human)
Technique: yeast growth competition, sequencing
Sample: yeast
Setting: strong parent motif
Reference: not given
Direction: higher = stronger binding
Quantity: normalised enrichment score
Parent: SCAPER docking peptide (human); SNARRSLNFGGST
T13W: 7.35
N2E: 5.57
N2L: 5.9
G11C: 7.2
A3W: 3.05
A3K: 0.509
S12W: 7.67
S6I: 6.58
A3M: 3.11
R5A L7A: 0.113
S12E: 7.41
L7A: 1.83
G11M: 7.25

Set 5
Target: RNA binding protein fox-1 homolog 2, RRM domain, GST-SBP tag (RBFOX2, Homo sapiens, UniProt O43251-10, residues 100-194)
Technique: RNA Bind-n-Seq
Form: RNA
Sample: in vitro
Tested at: 365 nM
Setting: natural RNA segment, single round, ends assumed
Reference: no-protein control
Direction: higher = stronger binding
Quantity: RBNS enrichment (R)
All sequences stand within: GGGAGUUCUACAGUCCGACGAUC … UGGAAUUCUCGGGUGCCAA
Residues (chain): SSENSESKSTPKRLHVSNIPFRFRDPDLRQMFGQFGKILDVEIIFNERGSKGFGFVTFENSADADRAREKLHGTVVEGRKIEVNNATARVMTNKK
GUAUUAUUUUCUCUGAAUCCUCUUCACUGGCCAAAGGUUGGCAGAUAGAGGCAACUCCCAGGCCAGUGAGCUUUACUUGCCGUGUAAAAGGAGGAAAGGGGUGGAAAAAA: 0.449
UUUUUUCCUUGCUCACAUUAAAAGGAAGCAUGGAGUUCUAAUGCUCCCAUAAACUAUGUAUUUUGGCAAGACACUUCACUACUCCAGGUCUCACUUUCCCCAUCUGUAAA: 1.01
CUGCCCUACCUAAUUGCACUUCCAGUCCUGUCUGUCCACAUAUGUACGUGUAUAUAAUUAUACAUAUAUAUAUAUCUAUUUUGCCCAGGUCUGGGUUUCGUUUUUACCCA: 0.526
GGCACACUGGGCUAGGGACGAGGAAGGAGCAGCCACAAGUGGUAGAACUGCCUUGGUGGACACCAGCCUCGCCCUGUCUUUAUUUCCUGAAUGGUUUGUGAACUUGCUCA: 0.414
CAGAUGUAUGAACAUCCUUGGAGUGCCCACCCAGCACCCAGUGUUGAGUAUUAACCUUACAUUUUACCCGACUUAAGGAGGAAUAGUAGUGUAAGAGCUGCCCGGCUCCC: 0.217
GGCUUAUUGGGGCUUUUAGCAUCUCUAGUAAGUAGCAUACAGCUUUGGCUGGCUUUCUAUCCACAAACCUAAAGCAGAGCUUGAAUGAUAAAUAGCAAGAAUGGAUGUGU: 1.44
CCCCCGGCAUGGCUCCAGGUGGCCUGGUGACUCCAUGAUGGACGAUCUUGCUCCCAGGACCUGCCUCUUCCCAGGCUUCCUGGGGAAGAGUUGUACGCCCAGGCAACAAG: 0.453
UGGCCCAUACUAAGGCUCUUCUGGGCUCCAGCACUCUUAAGUUAUUUUAAGAAUUCUCACUUGGCCUUUAGCACACCCGCCACCCCCAAGUGGGUGUGGAUAAUGCCAUG: 0.314
AGAAAUGGGACAUCUAAUAGUCCCUAAGUGCUAUUAAAUACCUUAUUGGACAAGGGCUUGCUUCAAGCAUCUGUAUUAGUCUGUAUUAAUGCUGCUGAUAAAGACGUACC: 0.281
CUCACUCCCACUAUCUCUACGGACACAUGCUCUCCGCCUUCCGGGACUAGCCACGGCCCCCAGGGCGGGUGUCCUGGUUUCACAGGCUCAGCCGGCCCUGACCCUUCCUG: 0.376
UGGCAACACACUUCACUGAACCCACUUGCUUCCAAAACGAUGCCAGCCCGAGGCACUGCUACGCCAGCAGCUGCCACAUGGGAUGGUGGCUCAGGCGCUCCCUCCAGGAU: 0.258
AACAAAAAAACCUCUUAAUAUUCUGGAGUCAUCAUUCCCUUCGACAGCAUUUUCCUCUGCUUUGAAAGCCCCAGAAAUCAGUGUUGGCCAUGAUGACAACUACAGAAAAA: 0.554

Repeated from above (set 1):
AAGTTAGG: 0.0227
AATCGGAA: 0.0729
ATGGAAAC: 0.159
CACGTACG: -0.072
CGGCAATA: 0.113
AATGTCTC: -0.0195
AATTCCCT: 0.132
AAAGAGTC: -0.152
CGACTTCC: -0.136
CCGTTGAC: -0.185
ATTTCTTG: 0.239
CCCGAGGC: -0.329
